# Measurements collected from several papers.
# Parts stem from different laboratories: compare values within a part only.
# UniProt P42684, sequence (whole entry, looked up): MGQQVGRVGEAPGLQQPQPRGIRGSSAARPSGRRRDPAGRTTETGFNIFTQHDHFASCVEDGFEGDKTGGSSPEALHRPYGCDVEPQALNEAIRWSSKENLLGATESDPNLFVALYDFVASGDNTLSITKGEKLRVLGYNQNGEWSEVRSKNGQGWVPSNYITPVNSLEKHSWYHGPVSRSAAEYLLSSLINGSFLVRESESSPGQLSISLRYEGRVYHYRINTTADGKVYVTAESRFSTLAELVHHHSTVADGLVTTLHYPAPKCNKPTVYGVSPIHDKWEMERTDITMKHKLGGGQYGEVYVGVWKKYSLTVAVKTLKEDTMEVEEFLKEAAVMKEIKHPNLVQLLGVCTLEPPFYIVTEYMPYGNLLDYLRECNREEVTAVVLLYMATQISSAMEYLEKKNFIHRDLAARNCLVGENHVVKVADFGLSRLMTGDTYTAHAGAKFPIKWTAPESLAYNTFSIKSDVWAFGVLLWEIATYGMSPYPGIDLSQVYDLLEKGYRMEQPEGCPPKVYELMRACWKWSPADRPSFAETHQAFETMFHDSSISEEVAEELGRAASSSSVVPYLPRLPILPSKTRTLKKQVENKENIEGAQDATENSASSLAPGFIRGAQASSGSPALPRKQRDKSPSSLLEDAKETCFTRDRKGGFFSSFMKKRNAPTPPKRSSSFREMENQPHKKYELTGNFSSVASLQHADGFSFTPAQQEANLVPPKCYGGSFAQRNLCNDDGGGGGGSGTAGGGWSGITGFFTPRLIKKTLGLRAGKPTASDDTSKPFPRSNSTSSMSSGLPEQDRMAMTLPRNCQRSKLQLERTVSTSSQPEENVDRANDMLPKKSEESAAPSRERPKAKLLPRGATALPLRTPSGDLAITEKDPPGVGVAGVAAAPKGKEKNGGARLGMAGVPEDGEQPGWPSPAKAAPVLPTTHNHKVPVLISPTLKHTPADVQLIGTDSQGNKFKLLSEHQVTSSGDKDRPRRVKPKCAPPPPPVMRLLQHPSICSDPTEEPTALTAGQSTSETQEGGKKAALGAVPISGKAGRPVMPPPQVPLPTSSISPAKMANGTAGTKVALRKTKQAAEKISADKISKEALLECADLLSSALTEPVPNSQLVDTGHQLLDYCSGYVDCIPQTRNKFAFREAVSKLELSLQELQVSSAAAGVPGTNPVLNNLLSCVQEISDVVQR
# UniProt Q96PY6, sequence (whole entry, looked up): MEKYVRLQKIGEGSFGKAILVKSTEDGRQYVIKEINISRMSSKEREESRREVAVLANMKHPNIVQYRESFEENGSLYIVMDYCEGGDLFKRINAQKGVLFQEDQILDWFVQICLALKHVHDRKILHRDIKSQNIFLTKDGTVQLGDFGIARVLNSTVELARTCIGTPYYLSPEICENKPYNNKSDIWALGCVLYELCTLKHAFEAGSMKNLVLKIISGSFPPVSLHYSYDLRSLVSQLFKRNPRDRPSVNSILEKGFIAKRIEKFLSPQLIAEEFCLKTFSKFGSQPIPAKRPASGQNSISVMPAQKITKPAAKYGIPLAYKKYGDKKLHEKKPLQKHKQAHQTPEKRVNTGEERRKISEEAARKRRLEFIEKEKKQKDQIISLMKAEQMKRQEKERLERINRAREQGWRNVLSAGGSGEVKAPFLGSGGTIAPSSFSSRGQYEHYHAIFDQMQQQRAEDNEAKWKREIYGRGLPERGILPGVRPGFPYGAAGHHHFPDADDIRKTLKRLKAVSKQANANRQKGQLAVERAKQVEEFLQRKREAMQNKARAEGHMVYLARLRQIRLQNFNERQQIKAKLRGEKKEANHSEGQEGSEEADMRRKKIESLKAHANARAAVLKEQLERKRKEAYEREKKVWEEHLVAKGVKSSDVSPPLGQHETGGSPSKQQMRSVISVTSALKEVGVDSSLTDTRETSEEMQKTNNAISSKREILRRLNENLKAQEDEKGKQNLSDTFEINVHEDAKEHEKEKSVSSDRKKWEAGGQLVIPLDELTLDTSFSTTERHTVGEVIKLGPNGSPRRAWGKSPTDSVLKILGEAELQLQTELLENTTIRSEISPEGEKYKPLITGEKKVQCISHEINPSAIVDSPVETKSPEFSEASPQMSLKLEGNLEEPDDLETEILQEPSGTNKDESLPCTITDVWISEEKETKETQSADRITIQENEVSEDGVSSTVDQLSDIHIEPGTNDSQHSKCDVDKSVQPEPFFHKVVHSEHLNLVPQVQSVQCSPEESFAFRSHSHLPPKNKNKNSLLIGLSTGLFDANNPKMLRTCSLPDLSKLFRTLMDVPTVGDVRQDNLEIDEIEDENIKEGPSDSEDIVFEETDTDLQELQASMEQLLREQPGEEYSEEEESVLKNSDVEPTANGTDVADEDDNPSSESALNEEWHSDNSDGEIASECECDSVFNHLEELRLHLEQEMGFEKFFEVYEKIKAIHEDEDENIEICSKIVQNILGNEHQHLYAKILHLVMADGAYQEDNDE
# UniProt P49137, sequence (whole entry, looked up): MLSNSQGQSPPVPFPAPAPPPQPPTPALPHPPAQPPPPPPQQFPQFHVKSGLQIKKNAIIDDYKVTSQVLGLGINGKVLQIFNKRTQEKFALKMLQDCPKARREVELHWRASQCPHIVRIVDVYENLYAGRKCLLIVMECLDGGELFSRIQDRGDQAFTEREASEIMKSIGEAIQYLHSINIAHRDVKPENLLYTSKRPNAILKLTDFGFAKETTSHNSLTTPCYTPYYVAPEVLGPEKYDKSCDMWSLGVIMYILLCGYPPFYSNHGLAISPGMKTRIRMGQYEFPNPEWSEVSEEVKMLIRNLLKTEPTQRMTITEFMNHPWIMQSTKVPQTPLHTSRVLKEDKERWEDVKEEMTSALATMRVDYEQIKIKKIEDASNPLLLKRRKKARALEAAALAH
# UniProt Q8IYT8, sequence (whole entry, looked up): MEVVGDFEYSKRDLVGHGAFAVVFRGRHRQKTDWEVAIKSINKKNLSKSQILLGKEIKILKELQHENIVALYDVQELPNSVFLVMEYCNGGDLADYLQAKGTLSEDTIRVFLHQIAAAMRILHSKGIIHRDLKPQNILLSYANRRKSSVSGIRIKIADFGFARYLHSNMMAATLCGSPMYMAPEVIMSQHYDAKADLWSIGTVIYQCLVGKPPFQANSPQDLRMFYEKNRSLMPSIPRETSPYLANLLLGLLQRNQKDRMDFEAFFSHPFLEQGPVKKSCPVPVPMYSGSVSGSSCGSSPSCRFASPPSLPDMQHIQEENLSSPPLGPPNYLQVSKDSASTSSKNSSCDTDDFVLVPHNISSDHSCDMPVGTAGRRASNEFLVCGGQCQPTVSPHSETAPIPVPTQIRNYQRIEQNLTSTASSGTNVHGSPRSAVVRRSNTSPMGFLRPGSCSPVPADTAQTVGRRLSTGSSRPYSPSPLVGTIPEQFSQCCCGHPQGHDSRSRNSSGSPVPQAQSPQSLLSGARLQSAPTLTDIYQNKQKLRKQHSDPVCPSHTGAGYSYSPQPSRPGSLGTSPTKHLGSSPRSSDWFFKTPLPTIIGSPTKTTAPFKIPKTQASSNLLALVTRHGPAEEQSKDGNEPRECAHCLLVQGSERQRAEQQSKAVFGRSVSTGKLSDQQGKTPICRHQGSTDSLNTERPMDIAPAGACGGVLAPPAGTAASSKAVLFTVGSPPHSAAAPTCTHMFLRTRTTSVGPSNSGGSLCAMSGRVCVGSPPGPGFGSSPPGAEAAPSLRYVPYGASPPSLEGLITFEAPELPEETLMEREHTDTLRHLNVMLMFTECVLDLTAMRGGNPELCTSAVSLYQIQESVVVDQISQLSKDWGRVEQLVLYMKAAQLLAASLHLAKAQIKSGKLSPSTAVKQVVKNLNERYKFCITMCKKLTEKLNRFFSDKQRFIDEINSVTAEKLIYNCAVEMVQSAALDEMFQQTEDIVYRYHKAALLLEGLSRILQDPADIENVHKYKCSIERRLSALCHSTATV
# UniProt P49841, sequence (whole entry, looked up): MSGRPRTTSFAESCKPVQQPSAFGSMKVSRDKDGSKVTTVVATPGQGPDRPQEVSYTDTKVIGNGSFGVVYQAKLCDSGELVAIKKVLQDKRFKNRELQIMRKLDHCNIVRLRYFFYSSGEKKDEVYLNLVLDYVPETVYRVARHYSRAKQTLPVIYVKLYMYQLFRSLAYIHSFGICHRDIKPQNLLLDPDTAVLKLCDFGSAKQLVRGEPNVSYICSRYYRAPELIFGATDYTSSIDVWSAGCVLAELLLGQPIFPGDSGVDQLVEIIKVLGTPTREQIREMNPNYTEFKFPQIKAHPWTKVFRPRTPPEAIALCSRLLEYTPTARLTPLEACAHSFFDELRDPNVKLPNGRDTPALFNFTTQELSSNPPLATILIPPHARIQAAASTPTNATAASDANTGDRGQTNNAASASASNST
# UniProt Q9Y6M4, sequence (whole entry, looked up): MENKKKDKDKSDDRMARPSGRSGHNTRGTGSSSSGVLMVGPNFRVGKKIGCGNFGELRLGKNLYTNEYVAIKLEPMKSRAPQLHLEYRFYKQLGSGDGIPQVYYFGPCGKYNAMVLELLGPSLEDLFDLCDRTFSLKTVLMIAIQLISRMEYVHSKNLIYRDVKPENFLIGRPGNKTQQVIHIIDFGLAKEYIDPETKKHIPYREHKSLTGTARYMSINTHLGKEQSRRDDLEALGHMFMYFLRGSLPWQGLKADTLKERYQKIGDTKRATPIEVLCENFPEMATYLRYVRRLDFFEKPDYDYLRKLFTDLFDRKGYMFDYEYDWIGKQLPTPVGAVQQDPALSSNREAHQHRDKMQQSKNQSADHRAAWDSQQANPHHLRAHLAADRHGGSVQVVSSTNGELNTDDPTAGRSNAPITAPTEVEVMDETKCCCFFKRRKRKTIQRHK

# Set 1 — method: RNAcompete; form: RNA; sample: in vitro; concentration: 20 nM; notes: 7-mer, probes averaged, single round; baseline: mean of 7-mers; reading: higher = stronger binding
# Target: PABPC1L2, full length, GST fusion (mouse, UniProt A0ABA7IW68)
# Residues (chain): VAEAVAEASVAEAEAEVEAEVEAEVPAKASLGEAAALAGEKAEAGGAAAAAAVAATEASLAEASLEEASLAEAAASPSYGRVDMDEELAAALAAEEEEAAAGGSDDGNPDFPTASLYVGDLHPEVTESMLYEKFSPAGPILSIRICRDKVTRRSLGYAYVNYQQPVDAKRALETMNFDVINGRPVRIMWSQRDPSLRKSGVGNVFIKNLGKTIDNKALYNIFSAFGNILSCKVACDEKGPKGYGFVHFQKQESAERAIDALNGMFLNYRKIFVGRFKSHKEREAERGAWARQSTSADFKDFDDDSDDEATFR
Sequence,7-mer Z-score
CGGGAGC,0.00254
GCUUUAC,-0.22
UGUUUGU,-0.496
GAGUACU,-0.269
CUCGUUA,-0.374
UAUCCUA,-0.228
UACGCCU,-0.393
ACCUGAU,-0.222

# Set 2 — method: protein-binding microarray; form: double-stranded DNA, one strand shown; sample: in vitro; concentration: not given; reading: higher = stronger binding
# Target: Max dimerization protein 1, bHLH-zipper, MAX partner unstated (MXD1, Homo sapiens, UniProt Q05195, residues 56-136)
# Notes: k-mer, scored over probes, only values ≥0.25
# Target sequence (chain): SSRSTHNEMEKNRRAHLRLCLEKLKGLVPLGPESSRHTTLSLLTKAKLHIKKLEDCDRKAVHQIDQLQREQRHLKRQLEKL
Sequence,E-score
CACGAGTG,0.386
ATGTGATG,0.263
CACATGCG,0.45
ACGCCACG,0.335
CCGTCCAC,0.283
AAGGCGTG,0.296
ACACGTTC,0.345
CCTCCCCA,0.375

# Set 3 — Compound: CCCCc1c(-c2ccc(O)cc2)[nH]c2nccnc12; read-out: enzyme activity; mode: inhibitor; concentration: 0.5 µM; baseline: control
target,remaining activity [%]
"CSNK1G3 (Homo sapiens, UniProt Q9Y6M4)",82.3
"MAPK3 (Homo sapiens, UniProt P27361)",101
"TAOK2 (Homo sapiens, UniProt Q9UL54)",62.7
"FGFR3 (Homo sapiens, UniProt P22607)",80
"MAP2K2 (Homo sapiens, UniProt P36507)",84.7
"GSK3B (Homo sapiens, UniProt P49841)",75.4
"MAPKAPK2 (Homo sapiens, UniProt P49137)",92.6
"NEK1 (Homo sapiens, UniProt Q96PY6)",92.2
"EPHA3 (Homo sapiens, UniProt P29320)",95
"ABL2 (Homo sapiens, UniProt P42684)",64.9
"MAP3K14 (Homo sapiens, UniProt Q99558)",95.4
"FGFR1 (Homo sapiens, UniProt P11362)",81.8
"GRK7 (Homo sapiens, UniProt Q8WTQ7)",82.4
"ULK2 (Homo sapiens, UniProt Q8IYT8)",112

# Other studies, line by line
SMILES,tested on,test system,setting,endpoint,result
C[C@H](c1ccnc(Nc2nc3ccc(-c4cc(N(C)C)ncn4)cc3[nH]2)c1)N1CCN(C(=O)CC(F)(F)F)CC1,"TBK1 (Homo sapiens, UniProt Q9UHD2)",,0.1 µM,remaining activity,2.4%
COc1cc(=O)[nH]cc1C(=O)N1CCCC(c2cnn(C)c2)C1 (centres unmarked),,"human, microsomes or S9","2 µM, 0.5 h",remaining compound,76.1%

# For quick reference, copied from above (set 2):
Sequence,E-score
CACATGCG,0.45
ACGCCACG,0.335
CCGTCCAC,0.283
AAGGCGTG,0.296
